Assay results from different studies.
Every numbered part comes from another study and shows a few of its results, in no order.

Series 1
Target: RNA binding protein fox-1 homolog 2, RRM domain, GST-SBP tag (RBFOX2, Homo sapiens, UniProt O43251-10, residues 100-194)
Method: RNA Bind-n-Seq
Form: RNA
Matrix: in vitro
Concentration: 365 nM
Notes: natural RNA segment, single round, ends assumed
Reference: no-protein control
Direction: higher = stronger binding
Constant ends, left off below: GGGAGUUCUACAGUCCGACGAUC … UGGAAUUCUCGGGUGCCAA
Target sequence (chain): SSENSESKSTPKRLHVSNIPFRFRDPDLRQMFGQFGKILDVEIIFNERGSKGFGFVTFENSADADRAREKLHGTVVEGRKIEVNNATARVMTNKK
| Strand | RBNS enrichment (R) |
| --- | --- |
| AGGAAAUUAGAAUCUGUUUGCAAAUUGUCCAACCCACCCCCUCAACAUGAGGGGCUUCCAUUUUCUGUGUUUUGUAAGGGAACUGUUUCCUUCAUGCCGCCAUGUUCCUG | 0.405 |
| AAUGCCAUUAUUUGAUUAUACCAUUUUGAGGGUGAAUAUGGCUAGGCACUUUAGAUAAGCCUUUUUAAAAUUCUUUCUGAUUUUAAAUAAUGCGUCAAAAAAUGUGCAGA | 0.632 |
| GUAACUUGAUCCUCCCGAGCUGUGAGCGCAGUCUGAGGUGUGAGGACACGGCCUCCUGUUGGAGUCCCAUUUUCUCCAUCAGGGCACGUGGGCGGCUUCCUCAAGCCCGG | 1.22 |
| AUGGGUCUCCAUUCUGUGUGGCACCUUGAUUGGAAAAUAAUAUCCAUGCGUUUCUUCCACUGAGUCUUUCUUAGAUUAAAUCUCUCCCAGUUGUCCGUGAAGAGAAAGAC | 0.485 |
| AGCUGUGAAUGAAGAGGUUUCCUCUUUAAACCUGUCUGGUGGGCCCCCAGAUAUCCUCACCUCAGGGCCUCCUUUUUUUGCAAACUCCUCCCCUCCCCCGAGGGCAGACC | 0.256 |
| GUUGGCCUGUCACUUAAGUCAUUUCUCAACAAUGGCACUCACAAAGAGCUCCACAAUCAAGAUGGCAAAUGGAAACGUAAUCUGACUUCCUGGUGAAAAAUAAAAACCGG | 0.275 |
| GGUGUAGCCAGAAUAUUUUUUCCCUGCAAGCCCUAUGGGGUAGUAUCUAAUAAAUAUUCUGAGCAAGUGUGUGGGUUAUUUUUCAUCCAGGUCUAUUUCUAAUCUUCCCU | 0.549 |
| GUUCUGAAUAGUACAGAUUGAUGUGAACACAAAGCAUUUUGUGUAAGGAGAACCCCUUUCUUUUAAAAGAAGUCUGUCUAUUUCGAGGGGAGUUACAGGCAAGUUUGGUA | 0.756 |
| AGAAGGCUUGGCUUUCUUGACUUUCUUGCAUAAGAGUGAAAUACUCCUUACCCAGGGUAUCAUAGUUCUAAGAAUGAAAGCACCUUAAAUGCCUUGCACAGAACCAAUUU | 0.422 |
| UUAUGUAAAAUGCUCAAUUAUAUAUUUUUGUUGAGUUUUUUAAUUAAAGACUUGUAAAAAAAAAAAACAGUAUAUUGCAAAUGUUUCUUAAAUAGGUUAGGUGGAGUACU | 0.854 |
| CUGUUGAACAGAUGUCUCCUGUGUGAUGCCCCUGACUCUUACAUUUAUCUUUCUAAAUCAUUUUCUGAAGCUGACUUGCUCUAGGGUGCUUCAUCACCACUUCCAUCUUG | 0.321 |
| GAUCCAAGGCUGUUGGGCCUCUCAAGAUUUGAGAACCACAAAGCAGGAGGUGAGCAUAUUCUCUUGGUGCAGCUCCCAGCUUCAGACCUGCUGAGGGACCCUUCAACUGG | 0.526 |

Series 2
Target: Centromere-binding protein 1, full length, N-terminal tag (CBF1, Saccharomyces cerevisiae, UniProt P17106, residues 1-351)
UniProt P17106, sequence (whole entry, looked up): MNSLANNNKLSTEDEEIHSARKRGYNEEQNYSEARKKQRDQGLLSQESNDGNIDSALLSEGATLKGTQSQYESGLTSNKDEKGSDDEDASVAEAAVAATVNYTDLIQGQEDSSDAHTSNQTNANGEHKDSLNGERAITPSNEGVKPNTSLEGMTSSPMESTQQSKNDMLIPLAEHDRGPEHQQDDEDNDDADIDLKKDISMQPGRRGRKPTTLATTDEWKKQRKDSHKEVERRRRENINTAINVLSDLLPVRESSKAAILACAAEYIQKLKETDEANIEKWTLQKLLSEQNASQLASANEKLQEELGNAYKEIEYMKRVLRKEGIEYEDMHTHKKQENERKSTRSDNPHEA
Method: protein-binding microarray
Form: double-stranded DNA, one strand shown
Matrix: in vitro
Concentration: 0.8 µM
Notes: whole 60-bp probe, no competitor
Direction: higher = stronger binding
Constant ends, left off below: … GTCTTGATTCGCTTGACGCTGCTG
| Strand | fluorescence intensity |
| --- | --- |
| GAACATTTACTTGTCCTCCTGATTTGTTAATACTAG | 735 a.u. |
| GAAGGTATAACATATCTGGTGAGATGACCAATTTAG | 584 a.u. |
| CTATTTTCCCATTGTCACGAGAACATAATTGTTTTC | 1870 a.u. |
| CTAACAACAATTATCCACGTGCTTATCACGTTTTTC | 5270 a.u. |
| CCTAACTACTATAATGTCGTCATATAGCTTCGTACA | 540 a.u. |
| CTAAAGGACCCCCATATCGTGATAATCATTGATTTC | 566 a.u. |
| CTAAAATTACGAGATCAGCAGAAAATAAAATTCTTC | 513 a.u. |
| CTATAACCCCAATGGAAGGTGACGATCACTTCTTTC | 512 a.u. |
| GAATCCTGCGACCGTGATGATACCGAAAGTATGTAG | 592 a.u. |
| CTATCCAGAGTAATCCTGATGTTCTATTACCGATTC | 483 a.u. |
| GAAGTTTAATTCAGACACGCAATATATGTAGATTAG | 548 a.u. |
| GAACAACAACCAGCTCACGTTGCTGAACAGCCGTAG | 632 a.u. |
| GAAATTGAAGGGAAAAAGGTGACTGAAATATGATAG | 552 a.u. |
| GAAGTTAAACGAATGCACGAGTATCATGCATCTTAG | 580 a.u. |
| CTAGTGACTCGAGACCACGTGGAAAGATCCAACTTC | 4490 a.u. |
| GAACGACAATTTTGTCACGATTGTTATCATTTTTAG | 586 a.u. |
| GAAATTATGTAGCATCACCCGGAAGAACTTTTGTAG | 501 a.u. |
| CTATAAACTATTACCCACGGGATACCTGCTAGGTTC | 572 a.u. |
| CTAGTACTTTTGAATCATCAGACAAGAACAATGTTC | 500 a.u. |
| CCTAACTACTATAACATGGTGGTATAGCTTCGTACA | 530 a.u. |
| CTATAGTCATATTACCACGTGGAGCATCATGAATTC | 4790 a.u. |

Series 3
Target: Interferon regulatory factor 5, full length, phosphomimetic (IRF5, Homo sapiens, UniProt Q13568-2, residues 1-514, S451D/S453D/S456D/S462D)
Method: protein-binding microarray
Form: double-stranded DNA, one strand shown
Matrix: in vitro
Concentration: 940 nM top
Notes: 60-bp whole probe
With: salmon DNA 0.4 mg/ml
Reference: random background probes
Direction: higher = stronger binding
Constant ends, left off below: GCCTAGCAC … GTCTTGATTCGCTTGACGCTGCTG
| Strand | fitted relative affinity |
| --- | --- |
| GACGGTATCGGGTTCGGGACGTGCTAG | 4.17 z-score |
| GACGGTTTCCTACTGCGGACGTGCTAG | 0.778 z-score |
| TTAAATTTCGGGTATCGATTAGTGCTA | 3.69 z-score |
| GACGGACTGGACCATCGGGACGTGCTA | -0.772 z-score |
| TTGCATCTGGGTATTTTTCTGTGCTAG | 0.491 z-score |
| GACGATTTCGGGTTTCGAGGCGTGCTA | 2.56 z-score |
| CCAGCAGGGTTAGGCTTGCTGTGCTAG | -0.684 z-score |
| TTATGTATCGACTATCGGTTAGTGCTA | 2.85 z-score |
| TTAGGCCTCCTACTGCTTTAGTGCTAG | -0.323 z-score |
| TTAGGACTGGGTCTAGGTTAGTGCTAG | -0.669 z-score |
| GACGGTTCCCTTTTCCTGAGGTGCTAG | 0.434 z-score |
| GACAGTATCGGTATCGGGACGTGCTAG | 8.45 z-score |
| TTAGATATCGGACTGGATTAGTGCTAG | -0.146 z-score |
| GACGATATCGGGTCTCGAGACGTGCTA | 0.583 z-score |
| TTAGGTTTCCTGTCCCTTTAGTGCTAG | 1.23 z-score |
| TTAGACCTGAGTTTCGATTAGTGCTAG | 7.38 z-score |
| TTAGGACTGCTTTTCCTCTAGTGCTAG | -0.213 z-score |
| GACGATCTCAGACTGGTGACGTGCTAG | -0.395 z-score |

Series 4
Target: RING finger protein unkempt homolog, zinc fingers 1-6, GST-SBP tag (UNK, Homo sapiens, UniProt Q9C0B0, residues 30-357)
Method: RNA Bind-n-Seq
Form: RNA
Matrix: in vitro
Concentration: not given
Notes: RNA with constant flanks, human and mouse sites, ends assumed
Reference: input RNA pool
Direction: higher = stronger binding
Constant ends, left off below: GGGAGUUCUACAGUCCGACGAUC … CAACAGAGGAUUGAGCAUCA
Target sequence (chain): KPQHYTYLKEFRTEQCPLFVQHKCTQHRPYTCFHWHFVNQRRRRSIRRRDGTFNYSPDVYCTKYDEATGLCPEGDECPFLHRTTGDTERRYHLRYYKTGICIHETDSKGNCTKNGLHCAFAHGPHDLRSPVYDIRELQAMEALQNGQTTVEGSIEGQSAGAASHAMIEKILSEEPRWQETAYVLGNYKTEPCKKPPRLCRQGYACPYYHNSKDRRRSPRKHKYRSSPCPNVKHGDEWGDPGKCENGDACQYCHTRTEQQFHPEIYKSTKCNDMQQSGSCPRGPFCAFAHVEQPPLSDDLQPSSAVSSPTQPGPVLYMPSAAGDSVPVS
| Strand | bound/input enrichment [ratio] |
| --- | --- |
| GCACAGCAGAUGUAUGGCAGAGGUCCUUCCGCUCCUCACAUGGGGGGCUCCAUGCCCGGAUCUUUCCAAGGAAUUCCAGCAUCAGCAUCCCAUUCCUAUUCGAGUGCCUCCCAGCCCUAC | 0.112 |
| GAGCUGCAGGAACCAGACUGGGGGCGAGCUGAGCACCUGUAGUCAAUCACACGCAGCUUUUAGGUUUGUUUGAAUAAGAGAUCUGACCUGACCGGCCCAACUGUACAACUCUUCAAGGAA | 0.637 |
| UUUGUUUCUUUUUUUUUUUUUUUCCUGAAAGUUCCUGAAACCACAGUGGAAAGUGAGCCUGUCUCAUAUUUGGCAAAGACAUUUCUUGAAGUGCCCACAUAGCAGAUGUUGGCUGUUUCA | 1.41 |
| UUUUUUAAGUUUUUUUAACGUCUGCUUUUAGAAGUGGAGCUUUGACAGGGUGUUUGCUCGAUAGAAAGGCAGCCUCUGUCCUUAAGAAGAGAUUGUUACCAAGACUCCAGGCUAGGAGAG | 1.1 |
| CGGUUUGCAGUCCCUCCAGCACUUGGGAGUAAUUUGACCGACAAUGUCAUGAUCACAGUAGAUAUUAUUCCUUCAGGUUGGAAUUCAGCUGAUGGUAAAAGUGAUAAAACUAAAAGUGCG | 0.265 |
| GGAUAUGGUAAAAGAGGCCAAAUGAAACCCUCAGUUGAAUCCUAUUCUGAAGAUGAUGAAAGUAAAUUUUGCAGUUAUGGUCAGUAUCCAGCUGACCUAGCCCAUAAGAUACACAGUGCA | 0.0934 |
| UCUGACAUUUCUACGCUUGGACACCUGGUAGUAACCACUCAGGGAGGAUACGUGAAAGUAUUAGACCUUUCAAACUUCGAAAUUUUGGCCAAAGUGGAGCCUCCCAAAAAGGAGGGCACU | 0.31 |
| UUUGAUUUCUUUUUCUUUUUUUCUCUUCUUGUUUUUGUUUUUCUUUUUUGUUUGUUUUUUUAGCAUGCAAAUAUGUUGGUACGUUAUGUCCUGGUUUAAAAGGAUUAAAAAUUUAAAAGU | 1.37 |
| AGCAGGAAGGGCCUCAUAGCUGCCAUCUGUGCAGGUCCUACGGCUCUGUUGGCUCACGAAGUAGGUUUUGGAUGCAAGGUCACAACACACCCACUGGCUAAGGACAAAAUGAUGAAUGGC | 1.7 |
| UCUUACACCAUCCAGUCUGAACUGGGAGACUACGACCCAGAACUCCAUGGCGUGGAUUAUGUUAGUGAUUUUAAACUGGCCCCGAAUCAGACCAAGGAACUUGAAGAGAAGGUCAUGGAA | 0.505 |
| CUAAACCAGCUAGACCAGCGCUUUCCGGAGAACCACCCUACCCAUAGCAGCCCCCUGGAUACCAUCUAUUACCAUCGGGAGCUCCUUUGCUAUUCUCUGGAUGGACUUCGUGUAGAUCUG | 0.272 |

Excerpt of the above (series 2):
| Strand | fluorescence intensity |
| --- | --- |
| CTATTTTCCCATTGTCACGAGAACATAATTGTTTTC | 1870 a.u. |
| CTAACAACAATTATCCACGTGCTTATCACGTTTTTC | 5270 a.u. |
| CCTAACTACTATAATGTCGTCATATAGCTTCGTACA | 540 a.u. |
| CTAAAGGACCCCCATATCGTGATAATCATTGATTTC | 566 a.u. |
| CTAAAATTACGAGATCAGCAGAAAATAAAATTCTTC | 513 a.u. |
| CTATAACCCCAATGGAAGGTGACGATCACTTCTTTC | 512 a.u. |
